Measured values collected from several papers.
Numbered parts are unrelated; each lists some results of a single study. Positions count from the first letter of the parent shown.

Block 1
Target: RNA binding protein fox-1 homolog 2, RRM domain, GST-SBP tag (RBFOX2, Homo sapiens, UniProt O43251-10, residues 100-194)
Method: RNA Bind-n-Seq
Molecule type: RNA
Matrix: in vitro
Concentration: 365 nM
Setting: natural RNA segment, single round, ends assumed
Baseline: no-protein control
Direction: higher = stronger binding
Residues (chain): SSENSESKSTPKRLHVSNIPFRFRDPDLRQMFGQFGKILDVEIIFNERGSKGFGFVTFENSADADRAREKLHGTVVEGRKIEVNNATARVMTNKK
`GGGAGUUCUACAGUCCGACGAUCCAUUAUCAAUAACCACCCGGGGACUCUCUGGCUUUCAGAUCCAUCUGCCUGAGACCCCAAGGUCCUCUCCUCCCUAGAGGGGAGGUGGAGCAGCAGUUGACUCCUGGUUCUGGAAUUCUCGGGUGCCAA`: “RBNS enrichment (R)” 0.357.
`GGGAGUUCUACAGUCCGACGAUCUACAAGGUUGUGAGGCCCUCUCCCCCCCAACUUUGUUUAAGGCAUUUUGGUUUUUUAAAAUCUGUACAGUAAAAGCAACUUUUUCUGUCAAAUAAAAAUGAGAAAUGCAGUGGAAUUCUCGGGUGCCAA`: “RBNS enrichment (R)” 0.335.
`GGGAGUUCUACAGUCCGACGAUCACUUACAGUACACCUGACUUGGAAGACCCUUUUGAGUUCAAGGCAGAGUGUGCAAUGUUGAAAUGGAGCAGUAGGUGCUGAGGACUUCCACUACCAUUGUAGAUCCCCUUUGGAAUUCUCGGGUGCCAA`: “RBNS enrichment (R)” 0.369.
`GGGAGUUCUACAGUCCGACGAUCUCUACAAUGCUCUUCAUGGUCUCAAUGUCUGUGCCAUAAGGGUAGAAAGCUAACAGUCAGUUUUUGCAACCUGUCUUCUGGAAGCAAAGUGAAAAGAAAUGACCAGGGCUUGGAAUUCUCGGGUGCCAA` — result for “RBNS enrichment (R)”: 0.321.
`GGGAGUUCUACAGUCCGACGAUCAAAAGCUAGACAGAUCCCCGUUCCUGACAUCACAGCAGCCUCCAACACAAGGCUCCAAGACCUAGGCUCAUGGACGAGAUGGGAAGGCACAGGGAGAAGGGAUAACCCUAUGGAAUUCUCGGGUGCCAA` — result for “RBNS enrichment (R)”: 0.209.
`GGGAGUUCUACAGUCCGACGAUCCAUGUGGCAGGAAAGAAGCACCGAUUUCAAGAAUUACUUCCUAGAGAAAGUCAGGAACUAGAGACCAGAGUCUGCAGGAACUUUGCCACUGCCCUUCACUGGCUAAUCCUUGGAAUUCUCGGGUGCCAA` — result for “RBNS enrichment (R)”: 0.723.
Under “RBNS enrichment (R)”, `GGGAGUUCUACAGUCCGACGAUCGUCCUGAAUAGCUUACUAUUCUGUCAUGGUAAAACACAGCCUUUCUGUUCAAAUAUUAGGCCAAUCUGUAGGUGGAAAAAUUAACCAAUAAAAUAAAGACAGCUUUGGAAUGGAAUUCUCGGGUGCCAA` is recorded as 0.615.

Block 2
Target: CCNB1, cyclin fold, Cln2 fusion (human)
Method: yeast growth competition, sequencing
Matrix: yeast
Setting: strong parent motif
Baseline: not given
Direction: higher = stronger binding
Parent: E2F1 docking peptide (human); PPVKRRLDFETDH; partner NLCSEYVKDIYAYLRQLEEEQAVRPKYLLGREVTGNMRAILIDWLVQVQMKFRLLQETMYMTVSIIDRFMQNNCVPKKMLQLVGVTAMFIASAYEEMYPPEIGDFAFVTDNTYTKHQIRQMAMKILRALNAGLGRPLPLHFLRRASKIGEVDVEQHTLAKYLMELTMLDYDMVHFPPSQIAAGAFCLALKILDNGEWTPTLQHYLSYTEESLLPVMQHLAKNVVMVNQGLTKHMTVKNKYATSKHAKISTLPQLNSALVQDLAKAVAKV
Under “normalised enrichment score”, `PEVKRRLDFETDH [P2E]` is recorded as 4.81.
`PPVKRRLDFDTDH [E10D]`: “normalised enrichment score” 5.33.
`PPVKRRLDFTTDH [E10T]`: “normalised enrichment score” 4.73.
`PPVKRRLDFSTDH [E10S]` — result for “normalised enrichment score”: 4.55.
For `PPVKRRSDFETDH [L7S]`, “normalised enrichment score” read -0.0345.
`PPPKRRLDFETDH [V3P]`: “normalised enrichment score” 1.43.
Under “normalised enrichment score”, `PTVKRRLDFETDH [P2T]` is recorded as 4.65.
`PPVKRRLDFENDH [T11N]` — result for “normalised enrichment score”: 5.45.
`PPVKRRLDFELDH [T11L]`: “normalised enrichment score” 4.91.
`PDVKRRLDFETDH [P2D]`: “normalised enrichment score” 5.13.
Under “normalised enrichment score”, `PPVKRRLDFEVDH [T11V]` is recorded as 4.98.

Block 3
Target: ABI1, truncated, D143A, DHFR fusion (Arabidopsis thaliana)
Method: DHFR PCA, deep sequencing
Matrix: yeast
Setting: methotrexate growth selection, single substitutions
Together with: (+)-ABA 17 µM
Baseline: wild-type fitted maximum
Direction: higher = stronger binding
Parent: PYL1, truncated, DHFR fusion (Arabidopsis thaliana); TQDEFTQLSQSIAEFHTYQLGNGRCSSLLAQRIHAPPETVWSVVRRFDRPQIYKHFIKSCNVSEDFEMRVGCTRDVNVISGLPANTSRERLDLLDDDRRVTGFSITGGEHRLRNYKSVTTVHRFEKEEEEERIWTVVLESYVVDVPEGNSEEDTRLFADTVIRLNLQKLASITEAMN
`L8G`: “relative binding score” 8.27%.
`S11L` — result for “relative binding score”: 66.2%.
`E38F`: “relative binding score” 20.6%.
For `S140T`, “relative binding score” read -4.97%.
Under “relative binding score”, `G71V` is recorded as -9.99%.
Under “relative binding score”, `S11D` is recorded as 82.6%.
`R123Q`: “relative binding score” 98.8%.
`L93H`: “relative binding score” 71.9%.
`Y53A` — result for “relative binding score”: 1.13%.

Single results of other studies
`PhoQ, residues 284 288 289 292 302 303 NLGVHL` has a fold induction of 3.22 (PhoP, residues 12 14 15 18 19 LYFRQ (Escherichia coli, UniProt P23836); Sort-seq, measured: YFP reporter; E. coli; PhoQ-PhoP variant library, together with: 10 µM Mg2+; baseline: high Mg2+ state, higher = stronger signaling).

Excerpt of the above (block 2):
`PPVKRRLDFELDH [T11L]`: “normalised enrichment score” 4.91.
`PDVKRRLDFETDH [P2D]`: “normalised enrichment score” 5.13.
